Experimental data from different studies.
Each numbered part is a random draw from the data of one study; scales do not carry over between parts.
Sequence of UniProt P42336 (whole entry, unmodified, looked up): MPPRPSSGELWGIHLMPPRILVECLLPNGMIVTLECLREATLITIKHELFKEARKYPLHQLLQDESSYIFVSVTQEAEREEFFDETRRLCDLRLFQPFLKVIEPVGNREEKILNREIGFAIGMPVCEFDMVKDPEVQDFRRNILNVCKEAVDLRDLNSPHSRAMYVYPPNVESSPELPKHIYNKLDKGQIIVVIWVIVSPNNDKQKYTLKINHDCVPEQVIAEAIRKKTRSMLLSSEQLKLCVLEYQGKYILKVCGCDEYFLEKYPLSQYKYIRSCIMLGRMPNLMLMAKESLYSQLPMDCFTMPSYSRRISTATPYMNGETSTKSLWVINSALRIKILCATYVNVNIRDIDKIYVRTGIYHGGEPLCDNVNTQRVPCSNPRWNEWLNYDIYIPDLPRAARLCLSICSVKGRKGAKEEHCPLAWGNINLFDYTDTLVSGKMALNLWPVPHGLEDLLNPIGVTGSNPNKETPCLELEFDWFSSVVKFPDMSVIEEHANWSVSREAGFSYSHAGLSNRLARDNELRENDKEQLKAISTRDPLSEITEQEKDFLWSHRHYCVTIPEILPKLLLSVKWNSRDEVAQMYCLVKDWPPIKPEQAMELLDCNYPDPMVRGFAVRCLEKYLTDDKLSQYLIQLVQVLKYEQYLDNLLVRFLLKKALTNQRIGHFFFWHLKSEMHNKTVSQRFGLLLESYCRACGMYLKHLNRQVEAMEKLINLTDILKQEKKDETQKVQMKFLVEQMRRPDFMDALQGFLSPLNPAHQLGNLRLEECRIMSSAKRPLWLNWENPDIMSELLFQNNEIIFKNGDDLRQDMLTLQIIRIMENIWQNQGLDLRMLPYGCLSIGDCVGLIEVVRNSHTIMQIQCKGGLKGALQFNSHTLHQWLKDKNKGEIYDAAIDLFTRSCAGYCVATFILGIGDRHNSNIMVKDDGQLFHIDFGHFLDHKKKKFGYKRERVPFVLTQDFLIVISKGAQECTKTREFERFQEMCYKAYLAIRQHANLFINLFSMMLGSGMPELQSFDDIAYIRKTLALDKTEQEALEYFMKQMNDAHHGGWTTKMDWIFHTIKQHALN
Sequence of UniProt Q99759 (whole entry, looked up): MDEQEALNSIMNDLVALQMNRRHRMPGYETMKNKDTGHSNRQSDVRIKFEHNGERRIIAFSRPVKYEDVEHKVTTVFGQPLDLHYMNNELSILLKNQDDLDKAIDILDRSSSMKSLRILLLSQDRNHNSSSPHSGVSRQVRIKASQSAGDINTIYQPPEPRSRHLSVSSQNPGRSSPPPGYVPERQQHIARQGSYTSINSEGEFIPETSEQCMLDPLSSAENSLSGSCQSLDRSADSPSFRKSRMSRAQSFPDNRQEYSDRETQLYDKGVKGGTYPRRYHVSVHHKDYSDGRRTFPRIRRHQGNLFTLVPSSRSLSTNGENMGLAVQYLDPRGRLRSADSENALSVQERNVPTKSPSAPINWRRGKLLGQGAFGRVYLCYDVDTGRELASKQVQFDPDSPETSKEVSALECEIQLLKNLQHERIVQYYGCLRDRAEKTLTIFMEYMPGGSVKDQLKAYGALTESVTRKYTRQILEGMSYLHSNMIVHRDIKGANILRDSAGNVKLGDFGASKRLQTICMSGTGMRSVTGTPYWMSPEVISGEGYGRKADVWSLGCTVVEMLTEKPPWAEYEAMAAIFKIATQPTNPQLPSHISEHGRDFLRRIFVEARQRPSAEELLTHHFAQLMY
Sequence of UniProt Q9BWU1 (whole entry, looked up): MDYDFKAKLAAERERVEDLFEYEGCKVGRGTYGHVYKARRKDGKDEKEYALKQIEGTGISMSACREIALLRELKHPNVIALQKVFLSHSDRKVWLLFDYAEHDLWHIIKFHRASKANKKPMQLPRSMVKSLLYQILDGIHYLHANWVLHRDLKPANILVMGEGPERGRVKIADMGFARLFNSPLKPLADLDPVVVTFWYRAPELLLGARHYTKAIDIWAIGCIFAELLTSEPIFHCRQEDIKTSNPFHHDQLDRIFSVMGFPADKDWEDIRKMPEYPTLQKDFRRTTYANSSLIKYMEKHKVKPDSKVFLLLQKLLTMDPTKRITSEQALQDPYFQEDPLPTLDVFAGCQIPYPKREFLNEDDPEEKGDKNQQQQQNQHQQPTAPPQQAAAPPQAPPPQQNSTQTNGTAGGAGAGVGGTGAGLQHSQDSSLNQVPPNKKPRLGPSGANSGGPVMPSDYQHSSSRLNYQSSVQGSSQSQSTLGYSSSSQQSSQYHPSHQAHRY

Sample 1 — effect on: enzyme activity; action: inhibitor; concentration: 10 µM; quantity: inhibition
Target: Calcium/calmodulin-dependent protein kinase type II subunit alpha (CAMK2A, Homo sapiens, UniProt Q9UQM7)
Sequence of UniProt Q9UQM7 (whole entry, looked up): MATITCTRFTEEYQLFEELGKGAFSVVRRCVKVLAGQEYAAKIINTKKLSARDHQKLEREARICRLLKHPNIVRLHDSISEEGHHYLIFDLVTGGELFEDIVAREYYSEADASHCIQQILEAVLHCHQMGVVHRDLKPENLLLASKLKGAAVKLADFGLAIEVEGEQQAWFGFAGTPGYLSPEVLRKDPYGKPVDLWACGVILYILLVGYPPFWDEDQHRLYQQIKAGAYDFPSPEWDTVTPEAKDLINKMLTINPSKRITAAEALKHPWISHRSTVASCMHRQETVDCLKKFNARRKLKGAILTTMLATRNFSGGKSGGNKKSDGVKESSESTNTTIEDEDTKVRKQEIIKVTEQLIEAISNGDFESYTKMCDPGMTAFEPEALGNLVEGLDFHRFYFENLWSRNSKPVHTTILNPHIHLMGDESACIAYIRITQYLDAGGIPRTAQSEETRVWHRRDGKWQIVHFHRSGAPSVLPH
COc1cc2c3c(cc4ccccc4c3c1OC)N(C)CC2: 25%
N#C[C@@H]1CCCN1C(=O)CNC12C[C@@H]3C[C@@H](CC(O)(C3)C1)C2: 5%
C#C[C@]1(OC(C)=O)CC[C@H]2[C@@H]3CCC4=CC(=O)CC[C@@H]4[C@H]3CC[C@@]21C: 10%
COC(=O)c1cccnc1: 31%
COc1ccc(-c2coc3cc(O[C@@H]4O[C@H](CO)[C@@H](O)[C@H](O)[C@H]4O)ccc3c2=O)cc1O: -7%
O=C(O)C(=O)CO: -2%
COc1ccc(-n2nc(C(N)=O)c3c2C(=O)N(c2ccc(N4CCCCC4=O)cc2)CC3)cc1: 4%
COc1ccc(C)cc1: -27%
CC(C)CCC[C@@H](C)[C@H]1CC[C@H]2C3=C(CC[C@]12C)[C@@]1(C)CC[C@H](O)CC1=CC3: -19%
COc1cc2oc(-c3ccc(O)cc3)cc(=O)c2c(O)c1OC: 1%
CCN(CC)C(=O)[C@]1(c2ccccc2)C[C@@H]1CN: -2%
C[C@H]1[C@H](C)CC[C@]2(C(=O)O)CC[C@]3(C)C(=CC[C@@H]4[C@@]5(C)C[C@@H](O)[C@H](O)C(C)(C)[C@@H]5CC[C@]43C)[C@H]12: -29%
COc1c(/C=C/C(=O)c2ccc(O)c(CC=C(C)C)c2)ccc(O)c1O: -36%
C[C@H](N)C(=O)O: 13%
COc1ccc(-c2coc3cc(O)ccc3c2=O)cc1: -9%
COc1cc(O)cc(O)c1C(=O)/C=C/c1ccc(O)cc1: -20%
COC(=O)[C@@]1(C)CC[C@]2(C(=O)O)CC[C@]3(C)C(=CC[C@@H]4[C@@]5(C)C[C@H](O)[C@H](O[C@@H]6OC[C@@H](O[C@@H]7O[C@H](CO)[C@@H](O)[C@H](O)[C@H]7O)[C@H](O)[C@H]6O)[C@@](C)(CO)[C@@H]5CC[C@]43C)[C@@H]2C1: -37%

Sample 2 — cell line: mouse MPNST tumor cells; method: high-content immunofluorescence imaging; measured: nuclear SOX9; concentration: 10 µM; time: 12 h; notes: mean of 2 replicates; reference: DMSO control; direction: higher = more nuclear SOX9; quantity: nuclear SOX9 intensity
Cc1c(C(=O)NCc2cccnc2)nn(-c2ccc(Cl)cc2Cl)c1-c1ccc(Cl)cc1: 105 % of DMSO
Cc1cccc2c1NC(=O)C2(c1ccc(O)cc1)c1ccc(O)cc1: 104 % of DMSO
CO[C@@]1(NC(=O)CSCC#N)C(=O)N2C(C(=O)O)=C(CSc3nnnn3C)CS[C@@H]21: 109 % of DMSO
CN=c1nc(-c2ccccc2)n(-c2ccccc2)s1: 100 % of DMSO
Cc1cccc(Nc2cc(Cl)nc(SCC(=O)O)n2)c1C: 83.4 % of DMSO
CCC(=O)c1cc(-c2ccc(Cl)cc2)n(-c2ccc(S(N)(=O)=O)cc2)c1C: 103 % of DMSO
CNC[C@H](O)[C@@H](O)[C@H](O)[C@H](O)CO: 80.8 % of DMSO
C[C@H](Nc1cc2c(-c3ccc4c(c3)OCO4)noc2cn1)c1ccccc1: 124 % of DMSO
Fc1ccccc1CNCc1ccc(-c2ccnc3[nH]ccc23)cc1: 89.7 % of DMSO
CCC(C)N(C)C(=O)c1cc2ccccc2c(-c2ccccc2Cl)n1 (stereo not drawn): 92.3 % of DMSO
CCOc1ccc(NC(C)=O)cc1: 102 % of DMSO

Sample 3 — concentration: 1 µM; quantity: remaining binding
Compound: COc1cc(-c2cn(C3CCc4c(F)cccc4N(CC(F)(F)F)C3=O)nn2)ccc1-n1cnc(C)c1 (stereo not drawn)
Ribosomal protein S6 kinase alpha-4, N-terminal kinase domain (RPS6KA4, Homo sapiens, UniProt O75676); cell-free assay, competition with immobilised ligand: 100%
MYLK4 (Homo sapiens, UniProt Q86YV6); cell-free assay, competition with immobilised ligand: 100%
MAP3K3 (Homo sapiens, UniProt Q99759); cell-free assay, competition with immobilised ligand: 100%
PIK3CA (Homo sapiens, UniProt P42336, Q546K); cell-free assay, competition with immobilised ligand: 90%
MET (Homo sapiens, UniProt P08581, Y1235D); cell-free assay, competition with immobilised ligand: 100%
STK36 (Homo sapiens, UniProt Q9NRP7); cell-free assay, competition with immobilised ligand: 100%
NEK3 (Homo sapiens, UniProt P51956); cell-free assay, competition with immobilised ligand: 86%
PRKD3 (Homo sapiens, UniProt O94806); cell-free assay, competition with immobilised ligand: 100%
MAPK11 (Homo sapiens, UniProt Q15759); cell-free assay, competition with immobilised ligand: 90%
CDK19 (Homo sapiens, UniProt Q9BWU1); competition binding: 97%
DYRK1B (Homo sapiens, UniProt Q9Y463); cell-free assay, competition with immobilised ligand: 100%
AKT2 (Homo sapiens, UniProt P31751); cell-free assay, competition with immobilised ligand: 93%
CSNK2A2 (Homo sapiens, UniProt P19784); cell-free assay, competition with immobilised ligand: 100%
HASPIN (Homo sapiens, UniProt Q8TF76); cell-free assay, competition with immobilised ligand: 87%
FLT3 (Homo sapiens, UniProt P36888, D835V/ITD); cell-free assay, competition with immobilised ligand: 100%
SRC (Homo sapiens, UniProt P12931); cell-free assay, competition with immobilised ligand: 93%
MAP4K5 (Homo sapiens, UniProt Q9Y4K4); binding, competition with immobilised ligand: 5.8%
Tyrosine-protein kinase ABL1, non-phosphorylated (ABL1, Homo sapiens, UniProt P00519, F317L); cell-free assay, competition with immobilised ligand: 85%
TTK (Homo sapiens, UniProt P33981); cell-free assay, competition with immobilised ligand: 100%
ACVR1B (Homo sapiens, UniProt P36896); cell-free assay, competition with immobilised ligand: 100%
PIK3CA (Homo sapiens, UniProt P42336, E542K); cell-free assay, competition with immobilised ligand: 88%
Non-receptor tyrosine-protein kinase TYK2, JH1 (TYK2, Homo sapiens, UniProt P29597); cell-free assay, competition with immobilised ligand: 100%
EGFR (Homo sapiens, UniProt P00533, del746-750); cell-free assay, competition with immobilised ligand: 94%
CDK13 (Homo sapiens, UniProt Q14004); cell-free assay, competition with immobilised ligand: 99%
MAP3K1 (Homo sapiens, UniProt Q13233); cell-free assay, competition with immobilised ligand: 100%

Sample 4 — effect on: enzyme activity; action: inhibitor; concentration: 0.5 µM; reference: control; quantity: remaining activity
Target: Serine/threonine-protein kinase WNK2 (WNK2, Homo sapiens, UniProt Q9Y3S1)
Sequence of UniProt Q9Y3S1 (whole entry, looked up): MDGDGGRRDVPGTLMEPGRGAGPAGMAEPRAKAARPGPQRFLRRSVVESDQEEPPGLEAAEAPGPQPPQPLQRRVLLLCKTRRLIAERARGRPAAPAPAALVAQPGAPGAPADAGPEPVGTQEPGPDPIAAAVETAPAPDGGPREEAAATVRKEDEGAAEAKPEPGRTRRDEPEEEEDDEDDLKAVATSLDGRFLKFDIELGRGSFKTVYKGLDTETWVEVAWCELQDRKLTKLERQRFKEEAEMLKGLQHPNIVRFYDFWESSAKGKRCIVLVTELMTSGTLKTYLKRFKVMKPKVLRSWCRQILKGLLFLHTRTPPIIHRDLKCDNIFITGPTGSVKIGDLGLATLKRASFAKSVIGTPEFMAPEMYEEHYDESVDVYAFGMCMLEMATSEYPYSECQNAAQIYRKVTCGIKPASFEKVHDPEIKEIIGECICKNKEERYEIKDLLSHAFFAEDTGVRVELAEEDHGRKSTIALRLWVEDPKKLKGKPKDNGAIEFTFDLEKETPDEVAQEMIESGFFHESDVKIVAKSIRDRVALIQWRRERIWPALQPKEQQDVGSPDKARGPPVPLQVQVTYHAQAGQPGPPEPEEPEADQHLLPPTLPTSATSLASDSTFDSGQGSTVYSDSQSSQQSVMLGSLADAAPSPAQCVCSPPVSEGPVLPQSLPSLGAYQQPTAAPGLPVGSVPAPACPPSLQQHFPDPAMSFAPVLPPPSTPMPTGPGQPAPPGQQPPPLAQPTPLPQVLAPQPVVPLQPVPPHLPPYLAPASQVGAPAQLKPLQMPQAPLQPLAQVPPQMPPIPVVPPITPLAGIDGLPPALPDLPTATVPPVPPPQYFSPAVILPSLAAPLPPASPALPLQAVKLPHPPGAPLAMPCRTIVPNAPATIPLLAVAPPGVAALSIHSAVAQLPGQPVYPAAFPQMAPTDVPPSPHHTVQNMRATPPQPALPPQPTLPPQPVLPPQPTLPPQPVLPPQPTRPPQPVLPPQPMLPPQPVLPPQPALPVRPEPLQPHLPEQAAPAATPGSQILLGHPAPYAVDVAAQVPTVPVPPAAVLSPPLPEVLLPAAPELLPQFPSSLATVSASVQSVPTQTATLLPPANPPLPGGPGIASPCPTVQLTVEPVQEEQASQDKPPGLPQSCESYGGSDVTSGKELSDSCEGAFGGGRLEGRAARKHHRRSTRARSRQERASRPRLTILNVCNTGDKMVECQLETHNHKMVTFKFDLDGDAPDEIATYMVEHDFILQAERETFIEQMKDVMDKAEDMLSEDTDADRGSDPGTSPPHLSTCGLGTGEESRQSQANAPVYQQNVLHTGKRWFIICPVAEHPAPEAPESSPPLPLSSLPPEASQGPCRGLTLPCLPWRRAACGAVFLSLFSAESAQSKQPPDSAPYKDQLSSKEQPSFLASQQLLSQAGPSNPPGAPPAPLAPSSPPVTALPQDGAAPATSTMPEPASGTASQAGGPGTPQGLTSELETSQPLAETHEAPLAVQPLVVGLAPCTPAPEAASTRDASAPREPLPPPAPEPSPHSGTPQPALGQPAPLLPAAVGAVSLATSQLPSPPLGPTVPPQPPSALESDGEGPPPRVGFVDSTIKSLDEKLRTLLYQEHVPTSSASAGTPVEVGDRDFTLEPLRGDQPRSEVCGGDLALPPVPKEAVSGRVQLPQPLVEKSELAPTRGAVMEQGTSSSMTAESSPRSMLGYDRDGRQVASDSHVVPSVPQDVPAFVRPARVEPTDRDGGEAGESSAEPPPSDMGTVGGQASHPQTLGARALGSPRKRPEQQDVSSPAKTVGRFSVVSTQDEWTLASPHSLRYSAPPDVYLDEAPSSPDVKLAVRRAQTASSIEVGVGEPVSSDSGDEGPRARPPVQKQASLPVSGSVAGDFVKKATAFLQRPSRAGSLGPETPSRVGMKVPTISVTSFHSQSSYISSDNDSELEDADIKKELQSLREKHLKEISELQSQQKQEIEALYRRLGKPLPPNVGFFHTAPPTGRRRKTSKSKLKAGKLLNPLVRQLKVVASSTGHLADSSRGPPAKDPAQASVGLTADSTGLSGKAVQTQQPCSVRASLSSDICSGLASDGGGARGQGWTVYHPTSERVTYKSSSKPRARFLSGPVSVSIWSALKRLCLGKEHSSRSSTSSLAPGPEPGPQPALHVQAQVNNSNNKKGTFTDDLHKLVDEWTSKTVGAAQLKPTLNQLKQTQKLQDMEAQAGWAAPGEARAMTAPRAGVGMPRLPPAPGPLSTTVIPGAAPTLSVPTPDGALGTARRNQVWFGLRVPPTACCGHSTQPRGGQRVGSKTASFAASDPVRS
Nc1cccc(-c2cc3c(Oc4cccc(O)c4)ncnc3[nH]2)c1: 103%
CCN(CC)C(=O)c1ccc(Nc2nc(OCC3CCCCC3)c3[nH]cnc3n2)cc1: 88.6%
COc1cc2ncnc(Nc3ccc(O)c(Br)c3)c2cc1OC: 102%
N#C/C(=C\c1ccc(O)c(O)c1)C(=O)NCc1ccccc1: 104%
N#Cc1c(NC(=O)c2cccc3ccccc23)sc2c1CCCC2: 109%
c1ccc(-c2[nH]ncc2-c2ccnc3ccccc23)nc1: 49.2%
c1ccc(-c2cnc(Nc3ccc(OCCN4CCCC4)cc3)s2)cc1: 119%
Cc1nc2cc3nc(-c4cccs4)cnc3cc2n1C: 123%
O=C1c2ccccc2-c2n[nH]c3cccc1c23: 102%
O=C(NC(NC(=S)Nc1ccc(F)c([N+](=O)[O-])c1)C(Cl)(Cl)Cl)C(c1ccccc1)c1ccccc1 (stereo not drawn): 117%
CN([C@@H](Cc1ccc(OS(=O)(=O)c2cccc3cnccc23)cc1)C(=O)N1CCN(c2ccccc2)CC1)S(=O)(=O)c1cccc2cnccc12: 100%
C[C@@H]1CCN(C(=O)CC#N)C[C@@H]1N(C)c1ncnc2[nH]ccc12: 101%
O=C1C(Cl)=C(N2C(=O)CCC2=O)C(=O)c2ccccc21: 108%
COc1cc2ncnc(Nc3cccc(Cl)c3)c2cc1OC: 98.6%
O=c1cc(-c2cccc3c2Sc2ccccc2S3)oc(N2CCOCC2)c1: 116%
Cc1cc2ncc(-c3ccccc3)nc2cc1C: 98.8%
Cc1cn(-c2cc(NC(=O)c3ccc(C)c(Nc4nccc(-c5cccnc5)n4)c3)cc(C(F)(F)F)c2)cn1: 102%
COc1cc2c(cc1OC)-c1[nH]nc(Nc3cccc(F)c3)c1C2: 104%
CN(C)C[C@H]1CCn2c(c(C3=C(c4cn(C)c5ccccc45)C(=O)NC3=O)c3ccccc32)C1: 103%
O=C(Nc1cccc(Nc2nccc(Nc3cccc(C(F)(F)F)c3)n2)c1)C1CC1: 122%
CCN(CC)CCNC(=O)c1c(C)[nH]c(/C=C2\C(=O)Nc3ccc(F)cc32)c1C: 100%
CCOc1nc(NC(=O)Cc2cc(OC)ccc2OC)cc(N)c1C#N: 104%
Ic1cccc(CSc2nnc(-c3ccncc3)o2)c1: 99.5%
Cn1nc2c3c(cccc31)C(=O)c1ccccc1-2: 104%
CCN(CC)CCNC(=O)c1c(C)[nH]c(/C=C2\C(=O)Nc3ccc(Cl)cc32)c1C: 101%
